Earlier results, collected from citations in different studies.

`CC(C)(C)c1cc(C(C)(C)C)c(NC(=O)c2c[nH]c3ccccc3c2=O)cc1O`: “absorption rate constant” 5.19 h⁻¹ (human).
Under “absorption lag time”, `C[C@@H]1CCO[C@H]2Cn3cc(C(=O)NCc4ccc(F)cc4F)c(=O)c(O)c3C(=O)N12` is recorded as 0.263 h (population PK model; adult humans).
For `O=C(NC[C@H]1CN(c2ccc(N3CCOCC3=O)cc2)C(=O)O1)c1ccc(Cl)s1`, “absorption rate constant” read 0.82 h⁻¹ (human; Model B fixed).
For `Cc1nn(C)cc1S(=O)(=O)NC(=O)c1ccc(-n2ccc(OCC(C)(C)C(F)(F)F)n2)nc1N1C[C@@H](C)CC1(C)C`, “absorption rate constant” read 0.59 h⁻¹ (human).
`CN[C@H]1CC[C@@H](c2ccc(Cl)c(Cl)c2)c2ccccc21`: “absorption rate constant” 0.5 h⁻¹ (human; fixed in model).
Under “absorption rate constant (Ka)”, `CC1(C)CCC(CN2CCN(c3ccc(C(=O)NS(=O)(=O)c4ccc(NCC5CCOCC5)c([N+](=O)[O-])c4)c(Oc4cnc5[nH]ccc5c4)c3)CC2)=C(c2ccc(Cl)cc2)C1` is recorded as 3.72 day⁻¹ (legacy population PK model; human).
With `Nc1cc(C(F)(F)F)c(-c2nc(N3CCOCC3)nc(N3CCOCC3)n2)cn1` the GI50 was 0.927 µM (SK-N-AS).
For `CC1(C)S[C@@H]2[C@H](NC(=O)[C@H](N)c3ccc(O)cc3)C(=O)N2[C@H]1C(=O)O`, “absorption rate constant” read 0.091 h⁻¹ (population PK; human).
`Cn1ncnc1[C@H]1c2n[nH]c(=O)c3cc(F)cc(c23)N[C@@H]1c1ccc(F)cc1`: “absorption rate constant” 1.22 h⁻¹ (human).
The absorption extent of `COc1cc2c(Oc3ccc4[nH]c(C)cc4c3F)ccnc2cc1OCC1(N)CC1` is reported as about 80% (human; 5 mg, high-fat meal; relative to: fasted).

Repeated from above:
Under “absorption rate constant (Ka)”, `CC1(C)CCC(CN2CCN(c3ccc(C(=O)NS(=O)(=O)c4ccc(NCC5CCOCC5)c([N+](=O)[O-])c4)c(Oc4cnc5[nH]ccc5c4)c3)CC2)=C(c2ccc(Cl)cc2)C1` is recorded as 3.72 day⁻¹ (legacy population PK model; human).
